Measured values of several laboratories.
Numbers after ± are the reported error.

C=CC(=O)Nc1cc(Nc2ncnc(Nc3cc(Cl)c(F)cc3C(C)(C)O)n2)c(OC)cc1N(C)CCN(C)C gave a CLint of 7.1 (µL/min)/(10⁶ cells) (human hepatocytes).
Cc1cc2c(cc1C1(c3ncc(C(=O)O)cn3)CC1)C(C)(C)CCC2(C)C: “lowest effective concentration” 8.57 µg/mL (TK6; cytotoxicity, GreenScreen; without S9).
CC#N.[Cl][Mn-2]([Cl])([Cl])[Cl].[Mn+2].c1ccc(CN2CCCN3CCCN(CCCN(Cc4ccccc4)CC3)CC2)cc1 has an IC90 of 5.9 µM (THP-1; cytotoxicity).
Nc1c(C(=O)c2ccc(Cl)cc2)sc(S)c1-c1nc2ccccc2s1: “maximum non-toxic concentration” 80 µg/mL (HEp-2; cytotoxicity; 72 h).
Cc1ccc(OCC(=O)N(Cc2cccs2)c2ccn[nH]2)cc1 has a cytotoxic concentration of 5 µg/mL (human peripheral blood lymphocytes; refers to: mitotic index; 3 h, with S9).
Under “maximum non-toxic concentration”, CC(=O)O[C@@H]1[C@@H](OC(C)=O)[C@H](Sc2sc(C(=O)c3ccc(Br)cc3)c(N)c2-c2nc3ccccc3s2)OC[C@@H]1OC(C)=O is recorded as 90 µg/mL (HEp-2; cytotoxicity; 72 h).
The intracellular/extracellular ratio of COC1C=COC2(C)Oc3c(C)c(O)c4c(c3C2=O)C2=NC3(CCN(CC(C)C)CC3)NC2=C(NC(=O)C(C)=CC=CC(C)C(O)C(C)C(O)C(C)C(OC(=O)Nc2cnccn2)C1C)C4=O (centres unmarked) is reported as 31 (THP-1 derived macrophages; baseline: intracellular over extracellular).
CC/C(=C(\c1ccc(O)cc1)c1ccc(OCCN(C)CCOCCN(C)CCOc2ccc(/C(=C(/CC)c3ccccc3)c3ccc(O)cc3)cc2)cc1)c1ccccc1 has a cell density of 79% (U2OS transfected with ERβ; 10 µM, cytotoxicity).
With CC1=CC(c2ccc[nH]2)=NC1=CNC12CC3CC(CC(C3)C1)C2 the IC50 was 6.9 µM (HepG2; cell growth or viability, resazurin).
The CC50 of Cc1cc(/C=C/C#N)cc(C)c1Oc1nc(NC2CCN(Cc3ccc(C(N)=O)cc3)CC2)nc2ncccc12 is reported as 38 µM (TZM-bl; cell growth or viability, XTT).
C=C(c1ccc(C(=O)O)c(F)c1)c1cc2c(cc1C)C(C)(C)C=CC2(C)C: “lowest effective concentration” 1.06 µg/mL (TK6; cytotoxicity, GreenScreen; without S9).
For CCCCn1cc(C(=O)O)c(=O)c2cc(F)c(N)c([N+](=O)[O-])c21, the IC50 was 84.6 ± 5.07 µg/mL (SW-620; cell growth, SRB; 72 h).
For CNc1c(C)n(C)n(-c2ccccc2)c1=O, mRNA level read “increased” (HepaRG PXR knockout; refers to: CYP2B6; 300 µM, 72 h; baseline: untreated).
Cc1ccc(S(=O)(=O)Nn2c3c(cc(-c4nc5ccccc5s4)c2=O)CCCCCC3)cc1: “maximum non-toxic concentration” 130 µg/mL (HEp-2; trypan blue; 72 h).
For Cc1cc(C#N)cc(C)c1Oc1nc(NC2CCN(Cc3ccc(C(N)=O)cc3)CC2)nc2ccccc12, the CC50 was > 0.247 µM (TZM-bl; cell growth or viability, XTT).
For CC(=O)OC[C@H]1O[C@@H](Sc2sc(C(=O)c3ccc(Cl)cc3)c(N)c2-c2nc3ccccc3s2)[C@H](OC(C)=O)[C@@H](OC(C)=O)[C@@H]1OC(C)=O, “maximum non-toxic concentration” read 80 µg/mL (HEp-2; cytotoxicity; 72 h).
Cc1nc2cccc(OCC(C)(C)C(=O)NC(C)C)c2c(N)c1C(=O)[O-].[Na+] — result for “relative mitotic index”: ≥ 75% (human peripheral blood lymphocytes; 500 µg/mL, all three test conditions).
CC(=O)[O-].F[P-](F)(F)(F)(F)F.[Co+2].c1ccc(CN2CCCNCCN(Cc3ccccc3)CCCNCC2)cc1 gave an IC90 of > 15 µM (THP-1; cytotoxicity).
CC/C(=C(\c1ccc(O)cc1)c1ccc(OCCN(C)CCOCCOCCOCCN(C)CCOc2ccc(/C(=C(/CC)c3ccccc3)c3ccc(O)cc3)cc2)cc1)c1ccccc1 has a cell density of 55% (U2OS transfected with ERβ; 10 µM, cytotoxicity).
The IC50 of c1ccc(CN2CCNCCN(Cc3ccccc3)CCNCC2)cc1 is reported as > 25 µM (THP-1; cell growth or viability).
For O=C(Nc1ccc(OCCN2CCCC2)cc1)c1cc2ccc(Cl)cc2s1, the viability was 2% (C2C12 differentiated myotubes; 100 µM, 72 h).
With CC/C=C\C/C=C\C/C=C\C/C=C\C/C=C\C/C=C\CCC(=O)OC(CO)COP(=O)(O)OCC(N)C(=O)O (centres unmarked) the Papp was 85.9 ± 4.24 ×10⁻⁶ cm/s (human brain-like endothelial cell monolayer; LC-MS; in vitro BBB model; 10 µM, 180 min, pH 7.4).
C=CC(=C)CC[C@]1(C)[C@H](C)C[C@H](OC(=O)CCCCCCC)[C@@]23C(=C[C@H](OC(C)=O)C[C@@H]12)[C@@H](OC(C)=O)O[C@H]3OC(C)=O gave an IC50 of 5.03 µM (KB-VIN (P-gp-overexpressing); cell growth, SRB).
The Papp B→A of COc1ccc(NC(=O)N2CCCN3CCC(c4ccc(C#Cc5ccccc5)cc4)C3C2)cc1 (centres unmarked) is reported as 1.28 ×10⁻⁶ cm/s (MDCK-MDR1; Caco-2).
CC(C)C1CCC2(C)C3CCC4(CCC5=C(O4)C(C)(C)C(=O)C(=C(O)C=Cc4ccccc4)C5=O)C2C13 (centres unmarked) has a CC50 of 26.6 µM (HEp-2; cell growth or viability).
For Cc1cc(C#N)cc(C)c1Oc1nc(NC2CCN(Cc3ccc(S(=O)(=O)NC4CC4)cc3)CC2)nc2ccccc12, the CC50 was > 0.215 µM (TZM-bl; cell growth or viability, XTT).
For CC(=O)N[C@H](C(=O)N[C@H](C(=O)N[C@@H](CCCNC(=N)N)C(=O)N1Cc2ccccc2C[C@H]1C(=O)N[C@@H](Cc1ccccc1)C(N)=O)C1CCCCC1)C(C)C, the cytokine level was < 0.2 pg/mL (human PBMC; Bio-Plex multiplex, refers to: IL-5; 250 µg/mL, 24 h).
Cc1cc(/C=C/C#N)cc(C)c1Oc1nc(NC2CCN(Cc3ccc(S(N)(=O)=O)cc3)CC2)nc2ccccc12 has a CC50 of 21.6 µM (TZM-bl; cell growth or viability, XTT).
With OC[C@H]1O[C@H](OCCCCCCCCCCC(F)(F)C(F)(F)C(F)(F)C(F)(F)C(F)(F)C(F)(F)F)[C@H](O)[C@@H](O)[C@@H]1O the EC50 was 47 µM (B16-F10; cytotoxicity, MTT; 24 h).
Under “basolateral efflux fraction”, [99Tc+].[C-]#[N+]CC(C)(C)OC.[C-]#[N+]CC(C)(C)OC.[C-]#[N+]CC(C)(C)OC.[C-]#[N+]CC(C)(C)OC.[C-]#[N+]CC(C)(C)OC.[C-]#[N+]CC(C)(C)OC is recorded as 63.2% (rat sandwich-cultured hepatocytes; baseline: total efflux).
For Cc1cc(C#N)cc(C)c1Oc1nc(NC2CCN(Cc3ccncc3)CC2)nc2ccccc12, the CC50 was > 0.269 µM (TZM-bl; cell growth or viability, XTT).
OCC1CSC(c2ccc(O)cc2O)S1 (centres unmarked) has a viability of 97.4% (B16-F10; MTT; 25 µM, 24 h; baseline: untreated).
For O=C(Cc1ccc(OCc2ccccc2)cc1)NC1(C(=O)O)CCN(C(=O)c2ccc(-c3cccc(Cl)c3)cc2)CC1, the IC50 was > 100 µM (BEAS-2B; cytotoxicity; 3 days).
Cc1ccc(S(=O)(=O)Nn2c3c(cc(-c4nc5ccccc5s4)c2=O)CCCC3)cc1 — result for “maximum non-toxic concentration”: 130 µg/mL (HEp-2; trypan blue; 72 h).
Nc1ccn([C@@H]2O[C@H](CO)[C@@H](O)[C@H]2F)c(=O)n1 gave a CC50 of > 250 µM (SkMC; sulforhodamine B; 11 days, glucose medium).
With OC[C@H]1O[C@@H](OCCCCCCCCCCC(F)(F)C(F)(F)C(F)(F)C(F)(F)C(F)(F)C(F)(F)C(F)(F)C(F)(F)F)[C@H](O)[C@@H](O)[C@H]1O the EC50 was > 250 µM (B16-F10; cytotoxicity, MTT; 24 h).
For O=c1ccn([C@@H]2O[C@H](CO)[C@@H](O)[C@H]2F)c(=O)[nH]1, the CC50 was > 250 µM (SNB-78; cell growth or viability, SRB; 11 days).
For CCCC[C@H](NC(=O)[C@H](CC(=O)O)NC(=O)[C@H](CC(=O)O)NC(=O)[C@H](CCC(=O)O)NC(=O)[C@H](Cc1ccc(O)cc1)NC(=O)[C@H](CC(=O)O)NC(=O)[C@H](CC(=O)O)NC(=O)[C@H](CCC(=O)O)NC(=O)[C@H](CC(C)C)NC(=O)[C@H](CCC(=O)O)NC(=O)[C@H](CCC(=O)O)NC(=O)c1ccc2c(c1)C1(OC2=O)c2ccc(O)cc2Oc2cc(O)ccc21)C(=O)N[C@@H](CCC(=O)O)C(=O)N[C@@H](CCC(=O)O)C(N)=O, the degradation was 2 to 3% (BEAS-2B; CE-LIF; 60 s, single cells).
C/C=C/CNC(=N)NCCCCCCCCN1CCCc2cc(Cl)ccc2COc2ccccc2CNC(=N)NC1=O gave a CC50 of 38.5 ± 2.18 µg/mL (normal human dermal fibroblasts; MTT; 24 h).
For C[C@H](CCC1OC1(C)C)[C@@H]1CC[C@]2(C)C3=C(CC[C@@]12C)[C@@]1(C)CC[C@H](O)C(C)(C)[C@@H]1CC3 (some centres unmarked), the inhibition was 16.4% (HCT-15; cell growth or viability, SRB; 50 µM).
For C=CC(=O)N1CCCC(n2c(=O)c3ncccc3n(Cc3ccc(Oc4ccccc4)cc3)c2=O)C1 (centres unmarked), the intracellular/extracellular ratio was ~5 (HCT-116 and Rec1; 0.2 µM; baseline: intracellular over extracellular).
CC1=CC(OC(=O)c2ccccc2)C2(COC(=O)c3ccccc3)CCC(=C(C)C)C2C(O)CC2(C)OC2CC1 (centres unmarked) has a viability of 97.3% (HepG2; cell growth or viability, CCK-8; 10 µM, 24 h).
The efflux ratio of COc1cccc2c1C(=O)c1c(O)c3c(c(O)c1C2=O)CC(O)(C(=O)CO)CC3OC1CC(NC(=O)C[C@H](N)C(=O)O)C(O)C(C)O1 (some centres unmarked) is reported as 1.3 ± 0.11 (MDCK-MDR1; 50 µg/mL, 60 min; baseline: B-A over A-B).
OC[C@H]1O[C@@H](n2cnc3c(O)ncnc32)[C@H](F)[C@@H]1O has a CC50 of > 250 µM (SNB-78; sulforhodamine B; 11 days, galactose medium).
O=c1[nH]cc(C(c2cccc(Cl)c2)c2c[nH]c(=O)[nH]c2=O)c(=O)[nH]1 — result for cytotoxicity: “not toxic” (Ba/F3; 1 µg/mL).
O=C(CCl)Sc1nnc(-c2n[nH]c(=O)c3ccccc23)o1 gave a mRNA level of 1.04 ± 0.25 fold (HepG2; qRT-PCR, refers to: CDK1; IC50, 8 h; baseline: untreated).
Nc1ncnc2c1ncn2[C@@H]1O[C@H](CO)[C@@H](O)[C@H]1F has a CC50 of 114 µM (SkMC; sulforhodamine B; 11 days, glucose medium).

For quick reference, copied from above:
Under “maximum non-toxic concentration”, CC(=O)O[C@@H]1[C@@H](OC(C)=O)[C@H](Sc2sc(C(=O)c3ccc(Br)cc3)c(N)c2-c2nc3ccccc3s2)OC[C@@H]1OC(C)=O is recorded as 90 µg/mL (HEp-2; cytotoxicity; 72 h).
The intracellular/extracellular ratio of COC1C=COC2(C)Oc3c(C)c(O)c4c(c3C2=O)C2=NC3(CCN(CC(C)C)CC3)NC2=C(NC(=O)C(C)=CC=CC(C)C(O)C(C)C(O)C(C)C(OC(=O)Nc2cnccn2)C1C)C4=O (centres unmarked) is reported as 31 (THP-1 derived macrophages; baseline: intracellular over extracellular).
CC/C(=C(\c1ccc(O)cc1)c1ccc(OCCN(C)CCOCCN(C)CCOc2ccc(/C(=C(/CC)c3ccccc3)c3ccc(O)cc3)cc2)cc1)c1ccccc1 has a cell density of 79% (U2OS transfected with ERβ; 10 µM, cytotoxicity).
With CC1=CC(c2ccc[nH]2)=NC1=CNC12CC3CC(CC(C3)C1)C2 the IC50 was 6.9 µM (HepG2; cell growth or viability, resazurin).
The CC50 of Cc1cc(/C=C/C#N)cc(C)c1Oc1nc(NC2CCN(Cc3ccc(C(N)=O)cc3)CC2)nc2ncccc12 is reported as 38 µM (TZM-bl; cell growth or viability, XTT).
